{"data": "Measured values from different studies", "note": "± marks the error that the study gave."}
{"SMILES": "CC(C)(Sc1ccncc1-c1ccc(C#N)c2ccccc12)C(=O)O", "system": "healthy Japanese male subjects, plasma", "setting": "oral, 2.5 mg single dose, day 6, fed, geometric mean", "AUC(0-inf)": "39.2 ng·h/mL"}
{"SMILES": "CN1C(=O)[C@@H](NC(=O)c2nnc(Cc3ccccc3)[nH]2)COc2ccccc21", "system": "healthy men, plasma", "setting": "oral, 20 mg once daily, day 14, geometric mean", "AUC(0-inf)": "1150 ng·h/mL"}
{"SMILES": "COc1ccc2c3c1O[C@H]1C[C@@H](OC(=O)c4ccccc4)C=C[C@@]31CCN(C)C2", "system": "healthy elderly men, plasma", "setting": "intranasal, 44 mg, single dose", "AUC(0-inf)": "112 ng·h/mL"}
{"SMILES": "COc1cc(OC)c(/C=C/S(=O)(=O)Cc2ccc(OC)c(NCC(=O)O)c2)c(OC)c1", "system": "cancer patients, phase I, plasma", "setting": "oral, 140 mg twice daily, day 21 cycle 1", "AUC(0-inf)": "4590 ± 4850 ng·h/mL"}
{"SMILES": "NC(=O)c1cnc2[nH]ccc2c1N[C@@H]1[C@@H]2CC3C[C@H]1C[C@@](O)(C3)C2", "system": "healthy Japanese men, plasma", "setting": "oral, 200 mg, single dose fasted", "AUC(0-inf)": "2520 ng·h/mL"}
{"SMILES": "CNC(=O)c1ccc(-c2cnc3ncc(Cc4ccc5ncccc5c4)n3n2)cc1F", "system": "severe hepatic impairment", "setting": "oral, 200 mg, mean", "AUC(0-inf)": "8530 ng·h/mL"}
{"SMILES": "CC(C)=CCC[C@](C)(O[C@@H]1O[C@H](CO)[C@@H](O)[C@H](O)[C@H]1O)[C@H]1CC[C@]2(C)[C@@H]1[C@H](O)C[C@@H]1[C@@]3(C)CC[C@H](O[C@@H]4O[C@H](CO)[C@@H](O)[C@H](O)[C@H]4O)C(C)(C)[C@@H]3CC[C@]12C", "test": "LC-MS/MS", "system": "healthy volunteers, serum", "setting": "oral, 3 g fermented red ginseng", "AUC(0-inf)": "30.2 ± 41.9 ng·h/mL"}
{"SMILES": "CCOc1ccc(Cc2cc([C@@H]3S[C@H](CO)[C@@H](O)[C@H](O)[C@H]3O)c(OC)cc2C)cc1", "system": "Japanese type 2 diabetes patients, plasma", "setting": "oral, 5 mg single dose, eGFR 30-44 mL/min/1.73 m^2", "AUC(0-inf)": "2060 ± 414 ng·h/mL"}
{"SMILES": "CC(C)=CCC[C@](C)(O[C@@H]1O[C@H](CO)[C@@H](O)[C@H](O)[C@H]1O)[C@H]1CC[C@]2(C)[C@@H]1[C@H](O)C[C@@H]1[C@@]3(C)CC[C@H](O[C@@H]4O[C@H](CO)[C@@H](O)[C@H](O)[C@H]4O[C@@H]4O[C@H](CO)[C@@H](O)[C@H](O)[C@H]4O)C(C)(C)[C@@H]3CC[C@]12C", "test": "LC-MS/MS", "system": "healthy volunteers, serum", "setting": "oral, 3 g fermented red ginseng", "AUC(0-inf)": "188 ± 95.9 ng·h/mL"}
{"SMILES": "COc1cccc(N2CCN(C3=Nc4c(F)cccc4[C@H](CC(=O)O)N3c3cc(C(F)(F)F)ccc3OC)CC2)c1", "test": "UHPLC-MS/MS", "system": "healthy women, plasma", "setting": "intravenous infusion, 240 mg single dose, 30 min infusion, HPβCD formulation", "AUC(0-inf)": "32500 ± 9270 ng·h/mL"}
{"note": "Repeated from above:"}
{"SMILES": "CC(C)=CCC[C@](C)(O[C@@H]1O[C@H](CO)[C@@H](O)[C@H](O)[C@H]1O)[C@H]1CC[C@]2(C)[C@@H]1[C@H](O)C[C@@H]1[C@@]3(C)CC[C@H](O[C@@H]4O[C@H](CO)[C@@H](O)[C@H](O)[C@H]4O)C(C)(C)[C@@H]3CC[C@]12C", "test": "LC-MS/MS", "system": "healthy volunteers, serum", "setting": "oral, 3 g fermented red ginseng", "AUC(0-inf)": "30.2 ± 41.9 ng·h/mL"}
